Published values from different studies.
Compare with care: the assays were run in different laboratories. ≈ marks a conversion by molar mass, not a printed value.
Organism: Pseudomonas aeruginosa

CC[C@H](C)[C@H](NC(=O)[C@H](CCCCN)NC(=O)[C@H](CCCCN)NC(=O)[C@H](CC(C)C)NC(=O)[C@H](CCCCN)NC(=O)[C@H](CCC(=O)O)NC(=O)[C@H](CCCCN)NC(=O)[C@@H](NC(=O)[C@H](CCCCN)NC(=O)[C@H](CC(N)=O)NC(=O)[C@H](CCCNC(=N)N)NC(=O)[C@H](Cc1ccccc1)NC(=O)[C@H](CCCCN)NC(=O)[C@H](CCCNC(=N)N)NC(=O)[C@H](CC(C)C)NC(=O)[C@H](CCCNC(=N)N)NC(=O)[C@H](CCCCN)NC(=O)[C@H](CCCNC(=N)N)NC(=O)[C@H](CC(C)C)NC(=O)[C@@H](N)CC(C)C)[C@@H](C)CC)C(=O)NCC(=O)N[C@@H](CCC(N)=O)C(=O)N[C@@H](CCCCN)C(=O)N[C@H](C(=O)N[C@@H](CCC(N)=O)C(=O)NCC(=O)N[C@@H](Cc1ccccc1)C(=O)N[C@H](C(=O)N1CCC[C@H]1C(=O)N[C@@H](CCCCN)C(=O)N[C@@H](CC(C)C)C(=O)N[C@H](C(=O)N1CCC[C@H]1C(=O)N[C@@H](CCCNC(=N)N)C(=O)N[C@H](C(=O)N[C@@H](CCC(=O)O)C(=O)N[C@@H](CO)C(=O)O)[C@@H](C)O)C(C)C)C(C)C)[C@@H](C)CC
lethal concentration (inhibition zone method; 11082616, LB 0.8% agar with 154 mM NaCl; overnight, 37 °C): 1.47 µM

C[C@@](O)(C(F)F)[C@H](NC(=O)c1ccc(C#CC#CC2CC2)cc1)C(=O)NO
MIC50 (agar dilution; susceptible clinical isolates): 0.25 µg/mL (≈ 0.664 µM)

CCCC(=O)NCC(=O)N[C@@H](CC(C)C)C(=O)N[C@@H](CC(C)C)C(=O)N[C@@H](CCCCN)C(=O)N[C@@H](CCCNC(=N)N)C(=O)N[C@H](C(=O)N[C@@H](CCCCN)C(=O)N[C@H](C(=O)N[C@@H](CC(C)C)C(=O)N[C@@H](CC(C)C)C(=O)NCCCC[C@H](NC(=O)[C@H](CCCCNC(=O)[C@H](CC(C)C)NC(=O)[C@H](CC(C)C)NC(=O)[C@@H](NC(=O)[C@H](CCCCN)NC(=O)[C@@H](NC(=O)[C@H](CCCNC(=N)N)NC(=O)[C@H](CCCCN)NC(=O)[C@H](CC(C)C)NC(=O)[C@H](CC(C)C)NC(=O)CNC(=O)CCC)[C@@H](C)CC)[C@@H](C)O)NC(=O)[C@H](CC(C)C)NC(=O)[C@H](CC(C)C)NC(=O)[C@@H](NC(=O)[C@H](CCCCN)NC(=O)[C@@H](NC(=O)[C@H](CCCNC(=N)N)NC(=O)[C@H](CCCCN)NC(=O)[C@H](CC(C)C)NC(=O)[C@H](CC(C)C)NC(=O)CNC(=O)CCC)[C@@H](C)CC)[C@@H](C)O)C(N)=O)[C@@H](C)O)[C@@H](C)CC
FIC index (checkerboard; ATCC 27853; added: polymyxin B): 0.375

CC[C@H](C)[C@H](NC(=O)[C@H](CCCCN)NC(=O)[C@H](CCCCN)NC(=O)[C@H](CC(C)C)NC(=O)[C@H](CCCCN)NC(=O)[C@H](CCC(=O)O)NC(=O)[C@H](CCCCN)NC(=O)[C@@H](NC(=O)[C@H](CCCCN)NC(=O)[C@H](CC(N)=O)NC(=O)[C@H](CCCNC(=N)N)NC(=O)[C@H](Cc1ccccc1)NC(=O)[C@H](CCCCN)NC(=O)[C@H](CCCNC(=N)N)NC(=O)[C@H](CC(C)C)NC(=O)[C@H](CCCNC(=N)N)NC(=O)[C@H](CCCCN)NC(=O)[C@H](CCCNC(=N)N)NC(=O)[C@H](CC(C)C)NC(=O)CN)[C@@H](C)CC)C(=O)NCC(=O)N[C@@H](CCC(N)=O)C(=O)N[C@@H](CCCCN)C(=O)N[C@H](C(=O)N[C@@H](CCC(N)=O)C(=O)NCC(=O)N[C@@H](Cc1ccccc1)C(=O)N[C@H](C(=O)N1CCC[C@H]1C(=O)N[C@@H](CCCCN)C(=O)N[C@@H](CC(C)C)C(=O)N[C@@H](C)C(=O)N1CCC[C@H]1C(=O)N[C@@H](CCCNC(=N)N)C(=O)N[C@H](C(=O)N[C@@H](CC(=O)O)C(=O)N[C@@H](Cc1ccc(O)cc1)C(=O)O)[C@@H](C)O)C(C)C)[C@@H](C)CC
lethal concentration (inhibition zone; DH): 2.19 µM

CC(C)C[C@@H]1NC(=O)[C@H](CCCCN)NC(=O)CSC[C@@H](C(=O)N[C@@H](CCCCN)C(N)=O)NC(=O)[C@H](CC(C)C)NC(=O)[C@H](CC(C)C)NC(=O)[C@H](CC(C)C)NC(=O)[C@@H]2CSCC(=O)N[C@@H](CCCCN)C(=O)N[C@@H](CC(C)C)C(=O)N[C@@H](CCCCN)C(=O)N[C@@H](CCCCNC(=O)[C@H](CCCCN)NC1=O)C(=O)N[C@@H](CCCCN)C(=O)N[C@@H](CC(C)C)C(=O)N[C@@H](CC(C)C)C(=O)N2
minimal biofilm inhibitory concentration (PAO1; 24 to 25 h): 32 µg/mL

C[C@@H](c1ccccc1)N(CC(N)=O)C(=O)CN(C(=O)CN(CCCCN)C(=O)CN(C(=O)CN(C(=O)CN(CCCCN)C(=O)CN(C(=O)CN(C(=O)CN(CCCCN)C(=O)CN(C(=O)CN(C(=O)CNCCCCN)[C@@H](C)c1ccccc1)[C@@H](C)c1ccccc1)[C@@H](C)c1ccccc1)[C@@H](C)c1ccccc1)[C@@H](C)c1ccccc1)[C@@H](C)c1ccccc1)[C@@H](C)c1ccccc1
abscess size (LESB58, mouse, abscess model; maximum tolerated dose, 1 h post infection): 36.8 mm²

CC[C@H](C)[C@H](NC(=O)[C@H](CCCCN)NC(=O)[C@H](CCCCN)NC(=O)[C@H](CC(C)C)NC(=O)[C@H](CCCCN)NC(=O)[C@H](CCC(=O)O)NC(=O)[C@H](CCCCN)NC(=O)[C@@H](NC(=O)[C@H](CCCCN)NC(=O)[C@H](CC(N)=O)NC(=O)[C@H](CCCNC(=N)N)NC(=O)[C@H](Cc1ccccc1)NC(=O)[C@H](CCCCN)NC(=O)[C@H](CCCNC(=N)N)NC(=O)[C@H](CC(C)C)NC(=O)[C@H](CCCNC(=N)N)NC(=O)[C@H](CCCCN)NC(=O)[C@H](CCCNC(=N)N)NC(=O)[C@H](CC(C)C)NC(=O)[C@@H](N)CCCNC(=N)N)[C@@H](C)CC)C(=O)NCC(=O)N[C@@H](CCC(N)=O)C(=O)N[C@@H](CCCCN)C(=O)N[C@H](C(=O)N[C@@H](CCC(N)=O)C(=O)NCC(=O)N[C@@H](Cc1ccccc1)C(=O)N[C@H](C(=O)N1CCC[C@H]1C(=O)N[C@@H](CCCCN)C(=O)N[C@@H](CC(C)C)C(=O)N[C@@H](CCC(N)=O)C(=O)N1CCC[C@H]1C(=O)N[C@@H](CO)C(=O)N[C@@H](CCCCN)C(=O)N[C@@H](CCC(N)=O)C(=O)N[C@@H](CO)C(=O)O)C(C)C)[C@@H](C)CC
lethal concentration (inhibition zone method; 11082616, LB 0.8% agar with 154 mM NaCl; overnight, 37 °C): 7.2 µM

CC(C)C[C@H](NC(=O)[C@H](CCCCN)NC(=O)[C@H](CCCCNC(=O)[C@H](CC(C)C)NC(=O)[C@H](CCCCN)NC(=O)[C@H](CCCCNC(=O)[C@H](CC(C)C)NC(=O)[C@H](CCCCN)NC(=O)[C@H](CCCCNC(=O)[C@H](CC(C)C)NC(=O)[C@@H](N)CCCCN)NC(=O)[C@H](CC(C)C)NC(=O)[C@@H](N)CCCCN)NC(=O)[C@H](CC(C)C)NC(=O)[C@H](CCCCN)NC(=O)[C@H](CCCCNC(=O)[C@H](CC(C)C)NC(=O)[C@@H](N)CCCCN)NC(=O)[C@H](CC(C)C)NC(=O)[C@@H](N)CCCCN)NC(=O)[C@H](CC(C)C)NC(=O)[C@H](CCCCN)NC(=O)[C@H](CCCCNC(=O)[C@H](CC(C)C)NC(=O)[C@H](CCCCN)NC(=O)[C@H](CCCCNC(=O)[C@H](CC(C)C)NC(=O)[C@@H](N)CCCCN)NC(=O)[C@H](CC(C)C)NC(=O)[C@@H](N)CCCCN)NC(=O)[C@H](CC(C)C)NC(=O)[C@H](CCCCN)NC(=O)[C@H](CCCCNC(=O)[C@H](CC(C)C)NC(=O)[C@@H](N)CCCCN)NC(=O)[C@H](CC(C)C)NC(=O)[C@@H](N)CCCCN)C(N)=O
MBIC (biofilm formation; PAO1; 24 h, 37 °C): 16 µg/mL

CCCCCC(=O)NCC(=O)N[C@@H](CC(C)C)C(=O)N[C@@H](CC(C)C)C(=O)N[C@@H](CCCCN)C(=O)N[C@@H](CCCNC(=N)N)C(=O)N[C@H](C(=O)N[C@@H](CCCCN)C(=O)N[C@H](C(=O)N[C@@H](CC(C)C)C(=O)N[C@@H](CC(C)C)C(=O)NCCCC[C@H](NC(=O)[C@H](CCCCNC(=O)[C@H](CC(C)C)NC(=O)[C@H](CC(C)C)NC(=O)[C@@H](NC(=O)[C@H](CCCCN)NC(=O)[C@@H](NC(=O)[C@H](CCCNC(=N)N)NC(=O)[C@H](CCCCN)NC(=O)[C@H](CC(C)C)NC(=O)[C@H](CC(C)C)NC(=O)CNC(=O)CCCCC)[C@@H](C)CC)[C@@H](C)O)NC(=O)[C@H](CC(C)C)NC(=O)[C@H](CC(C)C)NC(=O)[C@@H](NC(=O)[C@H](CCCCN)NC(=O)[C@@H](NC(=O)[C@H](CCCNC(=N)N)NC(=O)[C@H](CCCCN)NC(=O)[C@H](CC(C)C)NC(=O)[C@H](CC(C)C)NC(=O)CNC(=O)CCCCC)[C@@H](C)CC)[C@@H](C)O)C(N)=O)[C@@H](C)O)[C@@H](C)CC
FIC index (checkerboard; ATCC 27853; added: polymyxin B): 0.25

CC[C@H](C)[C@H](NC(=O)[C@H](Cc1c[nH]cn1)NC(=O)[C@H](CCCCNC(=O)[C@@H](NC(=O)[C@H](CCCCN)NC(=O)[C@H](Cc1ccccc1)NC(=O)[C@H](CCCCNC(=O)[C@H](CC(C)C)NC(=O)[C@@H]1CCCN1C(=O)[C@H](CCCCN)NC(=O)CCS[C@@H]1O[C@H](CO)[C@H](O)[C@H](O)[C@H]1O)NC(=O)[C@H](CC(C)C)NC(=O)[C@@H]1CCCN1C(=O)[C@H](CCCCN)NC(=O)CCS[C@@H]1O[C@H](CO)[C@H](O)[C@H](O)[C@H]1O)[C@@H](C)CC)NC(=O)[C@@H](NC(=O)[C@H](CCCCN)NC(=O)[C@H](Cc1ccccc1)NC(=O)[C@H](CCCCNC(=O)[C@H](CC(C)C)NC(=O)[C@@H]1CCCN1C(=O)[C@H](CCCCN)NC(=O)CCS[C@@H]1O[C@H](CO)[C@H](O)[C@H](O)[C@H]1O)NC(=O)[C@H](CC(C)C)NC(=O)[C@@H]1CCCN1C(=O)[C@H](CCCCN)NC(=O)CCS[C@@H]1O[C@H](CO)[C@H](O)[C@H](O)[C@H]1O)[C@@H](C)CC)C(N)=O
MBIC (biofilm formation; PAO1; 24 h): 20 µM

CC(C)C1=CC2=CCC3C(C)(C(=O)OCCC[N+](C)(C)C)CCCC3(C)C2CC1 (stereo not shown)
selectivity index (ATCC 27853; baseline: HC50 over MIC): 3

CC[C@H](C)[C@H](NC(=O)[C@H](Cc1c[nH]cn1)NC(=O)[C@H](CCCCNC(=O)[C@@H](NC(=O)[C@H](CCCCN)NC(=O)CSC[C@H](NC(=O)[C@H](Cc1ccccc1)NC(=O)[C@H](CCCCNC(=O)[C@H](CC(C)C)NC(=O)[C@@H]1CCCN1C(=O)[C@H](CCCCN)NC(=O)CCS[C@@H]1O[C@H](CO)[C@H](O)[C@H](O)[C@H]1O)NC(=O)[C@H](CC(C)C)NC(=O)[C@@H]1CCCN1C(=O)[C@H](CCCCN)NC(=O)C[C@@H]1O[C@@H](C)[C@@H](O)[C@@H](O)[C@@H]1O)C(N)=O)[C@@H](C)CC)NC(=O)[C@@H](NC(=O)[C@H](CCCCN)NC(=O)CSC[C@H](NC(=O)[C@H](Cc1ccccc1)NC(=O)[C@H](CCCCNC(=O)[C@H](CC(C)C)NC(=O)[C@@H]1CCCN1C(=O)[C@H](CCCCN)NC(=O)CCS[C@@H]1O[C@H](CO)[C@H](O)[C@H](O)[C@H]1O)NC(=O)[C@H](CC(C)C)NC(=O)[C@@H]1CCCN1C(=O)[C@H](CCCCN)NC(=O)C[C@@H]1O[C@@H](C)[C@@H](O)[C@@H](O)[C@@H]1O)C(N)=O)[C@@H](C)CC)C(N)=O
MBC (PAO1; biofilm-forming conditions): > 45 µM

CN1CC(=O)N=C1N.C[C@H](CCC(=O)O)[C@H]1CC[C@H]2[C@@H]3CC[C@@H]4C[C@H](O)CC[C@]4(C)[C@H]3CC[C@]12C
antibacterial activity (TISTR357; 1 mg per disc, 18 to 24 h, 37 °C): inactive

Excerpt of the above:
CC[C@H](C)[C@H](NC(=O)[C@H](CCCCN)NC(=O)[C@H](CCCCN)NC(=O)[C@H](CC(C)C)NC(=O)[C@H](CCCCN)NC(=O)[C@H](CCC(=O)O)NC(=O)[C@H](CCCCN)NC(=O)[C@@H](NC(=O)[C@H](CCCCN)NC(=O)[C@H](CC(N)=O)NC(=O)[C@H](CCCNC(=N)N)NC(=O)[C@H](Cc1ccccc1)NC(=O)[C@H](CCCCN)NC(=O)[C@H](CCCNC(=N)N)NC(=O)[C@H](CC(C)C)NC(=O)[C@H](CCCNC(=N)N)NC(=O)[C@H](CCCCN)NC(=O)[C@H](CCCNC(=N)N)NC(=O)[C@H](CC(C)C)NC(=O)CN)[C@@H](C)CC)C(=O)NCC(=O)N[C@@H](CCC(N)=O)C(=O)N[C@@H](CCCCN)C(=O)N[C@H](C(=O)N[C@@H](CCC(N)=O)C(=O)NCC(=O)N[C@@H](Cc1ccccc1)C(=O)N[C@H](C(=O)N1CCC[C@H]1C(=O)N[C@@H](CCCCN)C(=O)N[C@@H](CC(C)C)C(=O)N[C@@H](C)C(=O)N1CCC[C@H]1C(=O)N[C@@H](CCCNC(=N)N)C(=O)N[C@H](C(=O)N[C@@H](CC(=O)O)C(=O)N[C@@H](Cc1ccc(O)cc1)C(=O)O)[C@@H](C)O)C(C)C)[C@@H](C)CC
lethal concentration (inhibition zone; DH): 2.19 µM
